Results collected from several papers.
Each numbered part is a random draw from the data of one study; scales do not carry over between parts. Changes are numbered by the printed parent chain.

Set 1
Target: ABI1, truncated, D143A, DHFR fusion (Arabidopsis thaliana, UniProt P49597)
Technique: DHFR PCA, dose-response
Sample: yeast
Notes: Hill fit, not affinity, not high confidence
Together with: (+)-ABA, dose series
Direction: lower = more sensitive
Endpoint: ABA EC50
Parent: PYL1, truncated, DHFR fusion (Arabidopsis thaliana, UniProt Q8VZS8); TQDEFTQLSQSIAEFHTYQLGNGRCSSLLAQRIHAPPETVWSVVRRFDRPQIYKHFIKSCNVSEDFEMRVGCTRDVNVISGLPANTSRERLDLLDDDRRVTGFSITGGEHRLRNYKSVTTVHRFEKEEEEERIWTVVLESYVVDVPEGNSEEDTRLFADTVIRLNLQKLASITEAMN
V143D: 15.8 µM
I33P: 1050 µM
L112R: 15.7 µM
A158I: 0.362 µM
V143P: 3.02 µM
I162F: 16.7 µM
T154D: 0.14 µM
A158Q: 31.5 µM
I33Q: 3.44 µM
T154F: 605 µM
P50G: 290 µM
R74N: 2.95 µM
A158Y: 0.152 µM
N149W: 2.1 µM

Set 2
Target: UBE2J2 UBC core domain (UniProt Q8N2K1)
Technique: yeast two-hybrid
Sample: yeast
Notes: mostly zero background
Baseline: not given
Direction: higher = stronger interaction
Endpoint: lacZ reporter activity
B1: RNF43 RING domain (UniProt Q68DV7); chain SGSSCSSAPVCAICLEEFSEGQELRVISCLHEFHRNCVDPWLHQHRTCPLCMFNITEGDSFS
B2: TRIM35 RING domain (UniProt Q9UPQ4); chain PSRSFKEELLCAVCYDPFRDAVTLRCGHNFCRGCVSRCWEVQVSPTCPVCKDRASPADLRT
B3: TRIM52 RING domain (UniProt Q96A61); chain PMQTLQEEAVCAICLDYFKDPVSISCGHNFCRGCVTQLWSKEDEEDQNEEEDEWEEEEDEEAV
B4: TRIM3 RING domain (UniProt O75382); chain VQPMDKQFLVCSICLDRYQCPKVLPCLHTFCERCLQNYIPAQSLTLSCPVCRQTSILPEQGV
B5: RNF14 RING domain (UniProt Q9UBS8); chain IKCFNSKLFLCSICFCEKLGSECMYFLECRHVYCKACLKDYFEIQIRDGQVQCLNCPEPKCPSVATPGQVK
B6: MSL2 RING domain (UniProt Q9HCI7); chain LLPYFRQSLSCCVCGHLLQDPIAPTNSTCQHYVCKTCKGKKMMMKPSCSWCKDYEQFEENKQ
Residues (chain): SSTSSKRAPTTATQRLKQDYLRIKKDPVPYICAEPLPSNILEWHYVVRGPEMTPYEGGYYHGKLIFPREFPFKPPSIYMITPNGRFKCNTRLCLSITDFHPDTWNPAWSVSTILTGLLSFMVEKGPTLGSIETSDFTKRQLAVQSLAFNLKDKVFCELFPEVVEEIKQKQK
LKQVSIRENCCSLCCDEVADTQLKPCGHSDLCMDCALQLETCPLCRKEIVSRIRQI (RSPRY1 RING domain (UniProt Q96DX4)): 0
B1 (RNF43 RING domain): 0
B2 (TRIM35 RING domain): 0
B3 (TRIM52 RING domain): 0
B4 (TRIM3 RING domain): 0
B5 (RNF14 RING domain): 0
KIKDLNEHIVCCLCAGYFVDATTITECLHTFCKSCIVKYLQTSKYCPMCNIKIHETQPLL (PCGF1 RING domain (UniProt Q9BSM1)): 0
B6 (MSL2 RING domain): 0

Set 3
Target: CCNA2, cyclin fold, Cln2 fusion (human)
Technique: yeast growth competition, sequencing
Sample: yeast
Notes: strong parent motif
Baseline: not given
Direction: higher = stronger binding
Endpoint: normalised enrichment score
Parent: RB1 docking peptide (human); PKPLKKLRFDIEG
PKPLKKLRFDIRG [E12R]: 0.852
PKPLKKLRFDREG [I11R]: 0.0933
SKPLKKLRFDIEG [P1S]: 0.757
PKPPKKLRFDIEG [L4P]: 1.12
PKPLKKLRFDWEG [I11W]: 0.683
PKPLKKLRFDIDG [E12D]: 0.957
PKPLKKLRFDICG [E12C]: 2.01
PKMLKKLRFDIEG [P3M]: 1.02
PKPLKKLRFVIEG [D10V]: 0.00111
FKPLKKLRFDIEG [P1F]: 1.48
RKPLKKLRFDIEG [P1R]: 1.4
PMPLKKLRFDIEG [K2M]: 0.285
PKPLKKLRFQIEG [D10Q]: 1.08
PKPLKKLRFDKEG [I11K]: 1.15

Set 4
Target: Hepatocyte nuclear factor 3-alpha (Foxa1, Mus musculus, UniProt P35582, residues 1-468, full length assumed)
Technique: EMSA with sequencing
Molecule type: double-stranded DNA, one strand shown
Sample: in vitro
Tested at: 10 and 20 nM
Notes: whole designed probe, mean of two concentrations, ends assumed
Baseline: negative control set to 0
Direction: higher = stronger binding
Endpoint: normalised bound fraction
Shared flanks, not repeated: GTGAGCGGTGCCCATTGATGGGGAAC … TTTCACTGGGATCGTGGGGAC
Construct (chain): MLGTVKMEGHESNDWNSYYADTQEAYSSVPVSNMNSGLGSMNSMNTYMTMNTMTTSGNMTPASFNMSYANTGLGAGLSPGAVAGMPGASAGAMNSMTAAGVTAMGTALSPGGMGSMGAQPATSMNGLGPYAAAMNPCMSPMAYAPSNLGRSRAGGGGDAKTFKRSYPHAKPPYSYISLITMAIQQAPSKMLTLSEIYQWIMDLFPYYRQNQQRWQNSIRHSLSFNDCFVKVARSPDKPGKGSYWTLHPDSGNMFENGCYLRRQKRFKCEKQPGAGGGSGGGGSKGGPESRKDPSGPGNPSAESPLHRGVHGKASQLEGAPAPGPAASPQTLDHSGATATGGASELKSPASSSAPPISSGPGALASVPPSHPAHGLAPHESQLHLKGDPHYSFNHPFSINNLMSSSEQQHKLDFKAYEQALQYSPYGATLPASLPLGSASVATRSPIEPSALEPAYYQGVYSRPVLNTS
CACTCATAGTCTTGCTATCCTTCATATACAGAGATGACCCTCCCAAGCCTAAAATCAACAGGGGGAGGCATAGAGCTGTCCTTCTGGCTCTAATGTTTGCTTTATCCACGCCCATCCATCATCTTAGTCCAGCATGTGAGAGCCAGTGTGAAGTGAGCAGAATATGGCATAAGTATGGAGTCATACATCCTTA: 0.349 ratio
ATCTTCCCCCTCTTCCTTGCCCCACCAGCTCACCTTCCCGGGTTATTTGCAGATAGGAAAATAAATAAAGCCGGCATTCGTTAACGCAGTTCTGGCGCAAACTGCTGTTTGCTCTGCATGAATCATGGTCCTTACGCGACGCCAGGCTCCGGGAGAGCAAAGCACCGTGTCAGGCGCATGATCCGGGCTCGCC: 0.354 ratio
CCACTACTCCTGCCAAGCCCTCCTGGCATCTCACCACTTTATTTGTTCCCATTTGTATCTAATGCTTTTGTCAACAGTTCAACAAAAGTCAAAGCAAACAACCCACTGCAAACACTGGGGGTAACAGCAACAAGCATGAATCCTTCACAATTATCCAGCCCAGCTGCTCACAGCTCGTCTGGGCTGCTTTCAT: 0.354 ratio
ATTCAAATACAGTGAACCCAGACCACATTCCAACAGCATTACCCAAGTGGTGAGGCTGAACTCTTCTGCAGATGCTTGTACACAAGACTTCATGTTTATTTTGTGACGTCACCTTCCTCTTTCCCCATTTCAAGTTGACCTTGTGTCGATTTTAACCTGGTTTTGTCTGTATAAACATGTTGGGATAAAGGAA: 0.359 ratio
CTATGTGCTGCCCCCAGAGGTGGAGTGTACAGAGGCAGGCAGGCTTCCTTGAGCTGCAGTGAGTTCCACCCAGTTTGAGCTTCCTGGCTGCTTTGTTTACCTACTCAAGCCTCAGCAATGGCGACGCCCCTCCCTCAGCCTGGCTGCTGTCTTGCAGTTAGATCTCAGACTGCTGTGCCAGCAGTGAGCAAGG: 0.396 ratio

Some of these lines once more (set 3):
PKPLKKLRFDREG [I11R]: 0.0933
SKPLKKLRFDIEG [P1S]: 0.757
PKPPKKLRFDIEG [L4P]: 1.12
